Experimental data pooled from the literature.
Each numbered part is a random draw from the data of one study; scales do not carry over between parts.
Sequence of UniProt P42681 (whole entry, looked up): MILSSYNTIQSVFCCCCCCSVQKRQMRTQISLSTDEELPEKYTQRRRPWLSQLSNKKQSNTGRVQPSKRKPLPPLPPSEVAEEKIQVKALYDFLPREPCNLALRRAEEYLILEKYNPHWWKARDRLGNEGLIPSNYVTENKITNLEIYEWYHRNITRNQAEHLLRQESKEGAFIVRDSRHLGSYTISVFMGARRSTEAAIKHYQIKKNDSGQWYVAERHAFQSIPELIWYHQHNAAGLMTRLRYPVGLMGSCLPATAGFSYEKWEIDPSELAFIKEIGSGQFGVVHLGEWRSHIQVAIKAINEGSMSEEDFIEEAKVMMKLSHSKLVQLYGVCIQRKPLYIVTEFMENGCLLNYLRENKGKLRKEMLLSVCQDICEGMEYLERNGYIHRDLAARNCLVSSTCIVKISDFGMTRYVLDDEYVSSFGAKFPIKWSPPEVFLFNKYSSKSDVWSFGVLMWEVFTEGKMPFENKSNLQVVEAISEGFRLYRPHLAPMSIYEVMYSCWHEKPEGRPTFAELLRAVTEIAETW

Series 1
Compound: CS(=O)(=O)NCC[C@H](NC(=O)c1cncc2c1cnn2-c1ccc(F)cc1)c1ccnc(S(C)(=O)=O)c1
Method: competition with immobilised ligand
Tested at: 1 µM
Quantity: remaining binding
MET (Homo sapiens, UniProt P08581, M1250T); cell-free assay: 88%
DYRK1B (Homo sapiens, UniProt Q9Y463); cell-free assay: 100%
TXK (Homo sapiens, UniProt P42681); binding: 84%

Series 2
Target: Diamine acetyltransferase 1 (Homo sapiens, UniProt P21673)
Mode: inhibitor
Tested at: 10 µM
Reference: control
Quantity: remaining activity
Residues (P21673 1-171): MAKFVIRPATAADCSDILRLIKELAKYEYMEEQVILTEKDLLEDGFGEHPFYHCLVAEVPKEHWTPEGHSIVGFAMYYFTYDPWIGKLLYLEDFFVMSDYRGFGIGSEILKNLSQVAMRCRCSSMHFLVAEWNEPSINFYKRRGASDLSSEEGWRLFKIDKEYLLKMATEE
O=c1c(O)c(-c2ccccc2)oc2cc(O)cc(O)c12: 92.6%
COc1cc(C=O)cc(OC)c1O: 89.3%
NCCC(=O)O: 96.8%

Series 3
Cell line: mouse MPNST tumor cells
Method: high-content immunofluorescence imaging
Measured: nuclear SOX9
Tested at: 10 µM
Time: 12 h
Setting: mean of 2 replicates
Reference: DMSO control
Reading: higher = more nuclear SOX9
Quantity: nuclear SOX9 intensity
CCCCCCCCc1ccc(-c2ccc(C(=O)O)cc2)cc1: 106 % of DMSO
CC(C)c1ccc(CC(=O)N2CCCC(c3cccc(OC(C)(C)C(=O)O)c3)C2)cc1 (centres unmarked): 105 % of DMSO
Clc1cccc(Cl)c1NC1=NCCN1: 106 % of DMSO

Series 4
SMILES: CC(C)n1cnc(-c2ccc(F)cc2)c1-c1ncc(C(=O)Nc2ccc(N3CCN(C)CC3)cc2)[nH]1
Method: Phase 2a trial
Species: idiopathic pulmonary fibrosis patients
Quantity: patients with adverse events
measured: muscular weakness; 60 mg once daily, grade 1 maximum intensity: 0%
measured: blood alkaline phosphatase increased; 30 mg once daily, grade 2 maximum intensity: 0%
measured: respiratory tract infection; 60 mg once daily, grade 5 maximum intensity: 0%
measured: reticulocyte count increased; 60 mg once daily, grade 5 maximum intensity: 0%

Series 5
Cell line: A-375
Tested at: 100 µM
Time: 18 h
Quantity: viability
COc1ccccc1OCC(O)CN1CCN(CC(=O)Nc2c(C)cccc2C)CC1 (centres unmarked): 84.8%
Cc1cnc(C(=O)N[C@H]2CCCCC/C=C\[C@@H]3C[C@@]3(C(=O)NS(=O)(=O)C3CC3)NC(=O)[C@@H]3C[C@@H](Oc4nc5ccccc5c5ccccc45)CN3C2=O)cn1: 35.9%
CC(C(=O)O)c1ccc2c(c1)Cc1cccnc1O2 (centres unmarked): 97.8%
CC1CCc2cc(F)cc3c(=O)c(C(=O)O)cn1c23 (centres unmarked): 106%

Series 6
Target: Testis-specific serine/threonine-protein kinase 1 (TSSK1B, Homo sapiens, UniProt Q9BXA7)
Effect on: enzyme activity
Mode: inhibitor
Tested at: 0.5 µM
Reference: control
Quantity: remaining activity
Residues (Q9BXA7 1-367): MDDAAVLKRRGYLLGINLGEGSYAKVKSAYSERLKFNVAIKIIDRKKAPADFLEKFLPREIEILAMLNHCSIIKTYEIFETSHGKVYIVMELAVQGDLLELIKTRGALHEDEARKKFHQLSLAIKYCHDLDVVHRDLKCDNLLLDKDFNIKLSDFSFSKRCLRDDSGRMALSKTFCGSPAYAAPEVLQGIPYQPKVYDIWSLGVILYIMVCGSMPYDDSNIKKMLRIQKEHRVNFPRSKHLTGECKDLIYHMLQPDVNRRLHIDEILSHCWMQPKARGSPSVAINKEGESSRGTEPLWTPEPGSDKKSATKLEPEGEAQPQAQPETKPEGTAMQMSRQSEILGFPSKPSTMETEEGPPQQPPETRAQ
COc1cc2ncnc(Nc3ccc(Oc4ccccc4)cc3)c2cc1OC: 104%
N#CC(C#N)=C(N)/C(C#N)=C/c1ccc(O)cc1: 111%
CCOC(=O)c1c(C)[nH]c(/C=C2\C(=O)Nc3ccccc32)c1C: 91.2%
CNC(=O)c1cc(Oc2ccc(NC(=O)Nc3ccc(Cl)c(C(F)(F)F)c3)cc2)ccn1: 98.7%
O=c1c2ccccc2[nH]c(=S)n1CCN1CCC(=C(c2ccc(F)cc2)c2ccc(F)cc2)CC1: 106%
Nc1[nH]nc2nc3ccccc3nc12: 95.4%
COc1cc2ncnc(Nc3ccc(F)c(Cl)c3)c2cc1OCCCN1CCOCC1: 90%
O=S(=O)(c1cccc2cnccc12)N1CCCNCC1: 93.5%
O=C(CCCc1ccc(-c2ccccc2F)cc1)Nc1ccc(O)cc1: 107%
COc1ccc(C(=O)Nc2sc3c(c2C(N)=O)CCCC3)cc1OC: 115%
Cc1nc(-c2ccccc2)c(-c2ccncc2)o1: 108%
Cc1ccc(Nc2nccc(N(C)c3ccc4c(C)n(C)nc4c3)n2)cc1S(N)(=O)=O: 99%
C#Cc1cccc(Nc2ncnc3cc(OCCOC)c(OCCOC)cc23)c1: 78.9%
Nc1ccc2ncnc(NCCc3ccc(Oc4ccccc4)cc3)c2c1: 100%
COc1ccc(CNC(=O)Nc2ncc([N+](=O)[O-])s2)cc1: 106%
O=C1NC(=O)C(c2cn(CCCO)c3ncccc23)=C1c1cnccn1: 94.9%
COc1ccc(OC)c2c(=S)c3ccccc3[nH]c12: 114%
Nc1ncnc2n[nH]c(Nc3ccc(F)cc3)c12: 96.4%
NCCNc1ncc(C(N)=O)c(Nc2cccc(C(F)(F)F)c2)n1: 32.9%
O=C(O)c1ccc2c3c1cccc3c(=O)n1c3ccccc3nc21: 112%

Series 7
Species: human
Sample: microsomes or S9
Tested at: 2 µM
Time: 0.5 h
Quantity: remaining compound
O=C(c1ccco1)N1CCN(C(=O)c2ccc(C[S+]([O-])Cc3ccccc3Cl)o2)CC1 (centres unmarked): 67.9%
COc1cc(Cn2c(-c3nnc(C)o3)cc3ccccc32)cc(OC)c1: 33.6%
COC(=O)c1ccc(/C=C(\COc2cccc3ccccc23)CN(CCCN(C)C)C(=O)OC(C)(C)C)cc1: 45.7%
CC(C)(C)OC(=O)NC(CC(=O)N1CCCCCN1C(=O)c1cccc(C#N)c1)Cc1ccccc1F (centres unmarked): 44%

Some of these lines once more (series 5):
Cc1cnc(C(=O)N[C@H]2CCCCC/C=C\[C@@H]3C[C@@]3(C(=O)NS(=O)(=O)C3CC3)NC(=O)[C@@H]3C[C@@H](Oc4nc5ccccc5c5ccccc45)CN3C2=O)cn1: 35.9%
COc1ccccc1OCC(O)CN1CCN(CC(=O)Nc2c(C)cccc2C)CC1 (centres unmarked): 84.8%
CC1CCc2cc(F)cc3c(=O)c(C(=O)O)cn1c23 (centres unmarked): 106%
CC(C(=O)O)c1ccc2c(c1)Cc1cccnc1O2 (centres unmarked): 97.8%
